Measurements from different studies.
Compare with care: the assays were run in different laboratories.
Nos2: Nitric oxide synthase, inducible (Nos2, Mus musculus, UniProt P29477)
Tmem97: Sigma intracellular receptor 2 (Tmem97, Rattus norvegicus, UniProt Q5U3Y7)

SMILES	target	assay	test system	conditions	how to read	selectivity ratio
Cc1cc(N)nc(CC2CNCC2OCCNCC(F)(F)c2ccc(F)cc2)c1 (stereo not shown)	Nos2	hemoglobin capture	–	–	reference: Ki iNOS over Ki nNOS	1200
C/C(=N\OCCN1CCCCC1)c1cccc(C(F)(F)F)c1	Tmem97	binding, [3H]-DTG radioligand binding	rat brain homogenate	–	reference: Ki over sigma-1 Ki	39 fold
O=C(c1ccc(SCCF)cc1)C1CCN(C2Cc3ccccc3CC2O)CC1 (single isomer, unassigned; (-))	Tmem97	radioligand competition	–	with: [3H]DTG	reference: Ki sigma-2 over Ki VAChT	> 450
COc1c(OC2OC(CO)C(O)C(O)C2O)cc2c(c1O)C(=O)c1c(cc(C)c(O)c1OC)C2=O (stereo not shown)	MAOA (Homo sapiens, UniProt P21397)	–	–	–	reference: IC50 MAO-B over MAO-A	4.57
COc1ccc(CC[C@H]2OC(=O)[C@@H]3CCCCN3C(=O)C(=O)C(C)(C)COC(=O)/C=C/CCN(C)C(=O)[C@H](CC(C)C)N(C)C(=O)[C@@H]3CCCN3C(=O)[C@H](Cc3ccccc3)N(C)C(=O)[C@H](c3ccccc3)NC(=O)CCC(=O)Nc3cccc2c3)cc1OC	FKBP5 (Homo sapiens, UniProt Q13451)	enzyme activity, inhibitor	–	–	reference: FKBP12 potency over FKBP5 potency	~40 fold
Cc1cc(N)nc(C[C@@H]2CNC[C@@H]2OCCCCOc2cc(F)cc(Cl)c2)c1	Nos2	enzyme activity, inhibitor	–	–	reference: Ki Nos2 over Ki nNOS	106
C/C(=N\OCCN1CCCC1)c1ccc(C(F)(F)F)cc1	Tmem97	binding, [3H]-DTG radioligand binding	rat brain homogenate	–	reference: Ki over sigma-1 Ki	948 fold
Cc1ccc(C[C@H](NC(=O)CN2CCCc3cc4cc(C(=O)NCCNC(=O)CCCC[C@@H]5SC[C@@H]6NC(=O)N[C@@H]65)c(=O)oc4cc32)C(=O)NC/C=C/S(=O)(=O)c2ccccc2)cc1	Cathepsin S (CTSS, Homo sapiens, UniProt P25774)	enzyme activity, irreversible inhibitor	–	–	reference: rhodesain kinact/Ki over cathepsin S kinact/Ki	7.4
Oc1ccc(CCC(O)CC(O)CCc2ccc(O)cc2)cc1 (stereo not shown)	Maob (Rattus norvegicus, UniProt P19643)	–	rat enzyme	with: benzylamine	reference: MAO-B over MAO-A	~2
Cc1cc(N)nc(C[C@H]2CNC[C@H]2OCCCCCc2cccc(F)c2)c1	Nos2	enzyme activity, inhibitor	–	–	reference: Ki Nos2 over Ki nNOS	52
COc1ccc(CCCN[C@@H]2CCC[C@H]2CN[C@@H]2CCC[C@H]2CNCCCCN[C@@H]2CCC[C@H]2CN)cc1	KDM1B (Homo sapiens, UniProt Q8NB78)	peroxidase-coupled	–	–	reference: Ki for KDM1B over Ki for LSD1	3.8
Cc1cc(N)nc(C[C@@H]2CNC[C@@H]2OCCC/C=C/c2cccc(F)c2)c1	Nos2	enzyme activity, inhibitor	–	–	reference: Ki Nos2 over Ki nNOS	55
CCOc1cncc(-c2ccc(NC(=O)C(CC)c3ccnc(NS(=O)(=O)C4CC4)n3)nc2)n1 (stereo not shown)	Ctps1 (Mus musculus, UniProt P70698)	enzyme activity	mouse	–	reference: CTPS2 over target IC50	5

For quick reference, copied from above:
SMILES	target	assay	test system	conditions	how to read	selectivity ratio
Cc1cc(N)nc(C[C@@H]2CNC[C@@H]2OCCC/C=C/c2cccc(F)c2)c1	Nos2	enzyme activity, inhibitor	–	–	reference: Ki Nos2 over Ki nNOS	55
C/C(=N\OCCN1CCCC1)c1ccc(C(F)(F)F)cc1	Tmem97	binding, [3H]-DTG radioligand binding	rat brain homogenate	–	reference: Ki over sigma-1 Ki	948 fold
